Assay results collected from several papers.
Lines come from different studies, so protocols differ.
UniProt P32238, sequence (whole entry, looked up): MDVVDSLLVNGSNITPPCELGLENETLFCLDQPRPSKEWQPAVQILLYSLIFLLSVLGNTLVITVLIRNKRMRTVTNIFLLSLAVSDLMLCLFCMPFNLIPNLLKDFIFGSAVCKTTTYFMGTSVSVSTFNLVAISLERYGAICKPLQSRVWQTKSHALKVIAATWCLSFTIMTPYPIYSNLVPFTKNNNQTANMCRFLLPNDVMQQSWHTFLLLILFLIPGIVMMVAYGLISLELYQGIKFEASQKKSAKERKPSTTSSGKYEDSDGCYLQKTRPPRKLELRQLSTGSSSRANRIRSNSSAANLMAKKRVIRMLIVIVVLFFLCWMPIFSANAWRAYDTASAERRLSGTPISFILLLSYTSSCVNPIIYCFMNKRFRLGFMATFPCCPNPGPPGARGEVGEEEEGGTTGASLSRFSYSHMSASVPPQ
UniProt P68402, sequence (whole entry, looked up): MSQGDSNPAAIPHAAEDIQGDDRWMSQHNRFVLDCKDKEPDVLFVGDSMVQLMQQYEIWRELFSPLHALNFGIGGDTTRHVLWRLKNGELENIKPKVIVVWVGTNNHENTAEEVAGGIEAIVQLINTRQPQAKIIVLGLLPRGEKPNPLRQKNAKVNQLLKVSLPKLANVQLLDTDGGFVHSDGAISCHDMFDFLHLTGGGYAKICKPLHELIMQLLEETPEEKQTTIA

Structure (SMILES) = CC[C@H](C)[C@@H]1NC(=O)[C@@H]2CCCN2C(=O)[C@H](CC(C)C)NC(=O)[C@H](CC(C)C)NC(=O)CNC(=O)[C@@H](NC(=O)[C@@H](NC(=O)[C@H](CC(=O)O)NC(=O)CNC(=O)[C@@H](NC(=O)[C@H](C)NC(=O)CNC(=O)[C@H](CCCCN)NC(=O)[C@H](CC(C)C)NC(=O)[C@H](CC(C)C)NC(=O)[C@H](CCCCN)NC(=O)CNC(=O)[C@@H](NC(=O)[C@@H](N)CC(C)C)C(C)C)C(C)C)C(C)C)CSSC[C@@H](C(=O)O)NC1=O; assay = RNA-seq, refers to: Pik3ap1 mRNA; test system = mouse traumatic brain injury, frontal cortex and hippocampus; setting = dose not given; scale = relative to: TBI plus compound vs TBI; measurement = log2 fold change; value = -1.82
Structure (SMILES) = CC(C)C[C@H](NC(=O)[C@H](CCCCN)NC(=O)OCC1c2ccccc2-c2ccccc21)C(=O)N[C@H](C(=O)N[C@@H](Cc1ccccc1)C(=O)N[C@@H](Cc1ccccc1)C(=O)N[C@@H](CCCCN)C(=O)NCC(=O)N[C@@H](Cc1ccccc1)C(=O)N[C@@H](C)C(=O)N[C@@H](Cc1c[nH]c2ccccc12)C(=O)N[C@@H](CC(N)=O)C(=O)N[C@H](C(=O)N[C@H]1CSSC[C@@H](C(=O)N[C@@H](Cc2c[nH]cn2)C(=O)N[C@@H](CCCNC(=N)N)C(=O)N[C@@H](CCCNC(=N)N)C(=O)N[C@@H](C)C(=O)N[C@@H](CC(N)=O)C(N)=O)NC(=O)[C@H](C(C)C)NC(=O)[C@H](CCCNC(=N)N)NC(=O)[C@H](C(C)C)NC(=O)CNC(=O)[C@H](CC(N)=O)NC(=O)[C@H](CCCNC(=N)N)NC(=O)[C@H](Cc2ccc(O)cc2)NC(=O)[C@H](C(C)C)NC1=O)C(C)C)C(C)C; test system = ICR mouse; setting = ip, 5 mg/kg; scale = direction not given; measurement = spasm score; value = 0
Structure (SMILES) = CC(C)c1nc(N(C)S(C)(=O)=O)nc(-c2ccc(F)cc2)c1/C=C/[C@@H](O)C[C@@H](O)CC(=O)O; test system = healthy human subjects; setting = oral, dose not given, study CL-0537 safety set; measurement = incidence of upper abdominal pain; value = 0%
Structure (SMILES) = O=C1[O][Pt]2([NH][C@@H]3CCCC[C@H]3[NH]2)[O]C1=O; assay = AUC-based, refers to: platinum; test system = BALB/c mice, CT26 tumour; setting = iv; scale = relative to: tumour over kidney; measurement = tumour to organ ratio; value = 0.4
Structure (SMILES) = COc1cc(Nc2ncc(F)c(Nc3ccc4c(n3)NC(=O)C(C)(C)O4)n2)cc(OC)c1OC; target or system = Cholecystokinin receptor type A (CCKAR, Homo sapiens, UniProt P32238); measurement = IC50; value = > 10 µM
Structure (SMILES) = N=C(N)NCCC[C@@H](NC(=O)[C@@H](N)Cc1ccccc1)C(=O)N[C@@H](Cc1ccccc1)C(=O)N[C@@H](CCCCN)C(N)=O; test system = early Huntington's disease patients, plasma; setting = subcutaneous, 5 mg daily, day 7, median; measurement = apparent volume of distribution; value = 24 L
Structure (SMILES) = C[C@]1(CO)Cc2ncn(-c3ccc(C#N)c(Cl)c3)c2C(=O)O1; test system = human, plasma; setting = 80 mg, first dose fasted; measurement = tmax; value = 1.5 h
Structure (SMILES) = O=C(Nc1ccccc1)C1CCN(C(=O)Oc2cccnc2)CC1; assay = refers to: reproductive and breast disorders; test system = healthy women; setting = oral, 20 mg, 7 days; measurement = subjects with adverse event; value = 14.3%
Structure (SMILES) = CC(C)C[C@@H]1NC(=O)[C@H](CC(C)C)NC(=O)[C@H](Cc2c[nH]c3ccccc23)NC(=O)[C@H](CO)NC(=O)[C@H](Cc2c[nH]c3ccccc23)NC(=O)[C@@H]2CCCN2C(=O)[C@H](CC(C)C)NC(=O)[C@H](Cc2c[nH]cn2)NC(=O)[C@@H]2CCCN2C(=O)[C@H](CC(N)=O)NC(=O)[C@H](C)NC(=O)[C@H](Cc2ccc(O)cc2)NC(=O)[C@H](CS)NC(=O)[C@H](CCCCNC(=O)CN2CCN(CC(=O)O)CCN(CC(=O)O)CCN(CC(=O)O)CC2)NC1=O [lutetium-177 labelled]; test system = BALB/c mice female 4T1 tumour, 4T1 tumour; setting = intravenous, 3.7 MBq, 72 h, unblocked; measurement = tumour uptake; value = 5.08 %ID
Structure (SMILES) = C[C@@H](O)[C@@H](CO)NC(=O)[C@@H](CCCNC(=N)N)NC(=O)[C@@H]1CCCN1C(=O)[C@@H]1CSSC[C@H](NC(=O)[C@H](Cc2ccccc2)NC(=O)CN2CCN(CC(=O)O)CCN(CC(=O)O)CCN(CC(=O)O)CC2)C(=O)N[C@@H](Cc2ccc(O)cc2)C(=O)N[C@@H](Cc2ccccc2)C(=O)N[C@@H](CCC(N)=O)C(=O)N[C@@H](CC(N)=O)C(=O)N1 [gallium-68 labelled]; test system = Wistar rat, muscle; setting = intravenous, 8 MBq, 30 min, group mean; measurement = tissue uptake; value = 0.73 %ID/g
Structure (SMILES) = CO[C@H]1C[C@@H]2CC[C@@H](C)[C@@](O)(O2)C(=O)C(=O)N2CCCC[C@H]2C(=O)O[C@H]([C@H](C)C[C@@H]2CC[C@@H](OC(=O)NCCOCCOCCOCCOCCOCCOCCOCCOCCC(=O)N3CCc4cc(Cn5nc(-c6ccc7oc(N)nc7c6)c6c(N)ncnc65)ccc4C3)[C@H](OC)C2)C[C@@H](O)[C@H](C)/C=C(\C)[C@@H](O)[C@@H](OC)C(=O)[C@H](C)C[C@H](C)/C=C/C=C/C=C/1C; test system = advanced solid tumour patients; setting = intravenous, dose not given, any grade, all doses; measurement = incidence of TEAE; value = 100%
Structure (SMILES) = N[C@@H]1c2ccccc2OC12CCN(c1cnc3c(N4CCCc5ncccc54)n[nH]c3n1)CC2; test system = advanced metastatic solid tumour patients; setting = oral, 150 mg once daily; measurement = TEAE leading to interruption; value = 100%
Structure (SMILES) = CN[C@@H](C)C(=O)N[C@H]1CN(S(=O)(=O)c2cccc(S(=O)(=O)N3CC[C@H]4CC[C@@H](C(=O)NC(c5ccccc5)c5ccccc5)N4C(=O)[C@@H](NC(=O)[C@H](C)NC)C3)c2)CC[C@H]2CC[C@@H](C(=O)NC(c3ccccc3)c3ccccc3)N2C1=O; test system = patients with advanced solid tumours; setting = 4 mg, phase I monotherapy; measurement = treatment-related AST elevation incidence; value = 0%
Structure (SMILES) = CC[C@H](C)[C@H](NC(=O)[C@H](Cc1ccccc1)NC(=O)[C@H](CCC(=O)O)NC(=O)[C@H](CCCNC(=N)N)NC(=O)[C@H](C)NC(=O)[C@H](C)NC(=O)[C@H](CCC(N)=O)NC(=O)[C@H](CCC(=O)O)NC(=O)[C@H](CCC(=O)O)NC(=O)[C@H](CC(C)C)NC(=O)[C@H](Cc1ccc(O)cc1)NC(=O)[C@H](CO)NC(=O)[C@H](CO)NC(=O)[C@@H](NC(=O)[C@H](CC(=O)O)NC(=O)[C@H](CO)NC(=O)[C@@H](NC(=O)[C@H](Cc1ccccc1)NC(=O)[C@@H](NC(=O)CNC(=O)[C@H](CCC(=O)O)NC(=O)[C@H](C)NC(=O)CCc1c[nH]cn1)[C@@H](C)O)[C@@H](C)O)C(C)C)C(=O)N[C@@H](C)C(=O)N[C@@H](Cc1c[nH]c2ccccc12)C(=O)N[C@@H](CC(C)C)C(=O)N[C@H](C(=O)N[C@@H](CCCNC(=N)N)C(=O)NCC(=O)N[C@@H](CCCNC(=N)N)C(=O)N[C@@H](CCCCNC(=O)COCCOCCNC(=O)COCCOCCNC(=O)CC[C@H](NC(=O)CCCCCCCCCCCCCCCCC(=O)O)C(=O)O)C(=O)NCC(=O)NCC(=O)N[C@@H](CO)C(=O)N[C@@H](CCCCNc1c(NCCCCCN(O)C(=O)CCC(=O)NCCCCCN(O)C(=O)CCC(=O)NCCCCCN(O)C(C)=O)c(=O)c1=O)C(=O)O)C(C)C [zirconium-89 labelled]; test system = rat, lung; setting = sc, 3 nmol/kg, 24 h, ex vivo; measurement = tissue uptake; value = 1.33 %ID/g
Structure (SMILES) = O=C(c1ccc(Cl)cc1)N1CCN2C(=O)N(OC(=O)N3CCOc4ccccc43)C(=O)C2C1 (stereo not shown); target or system = Platelet-activating factor acetylhydrolase IB subunit alpha2 (Homo sapiens, UniProt P68402); assay = enzyme activity, inhibitor, MS-based ABPP; test system = SW-620 conditioned medium; setting = 10 µM, 1 h, 37 °C; scale = relative to: compound over DMSO, lower = stronger inhibition; measurement = median ratio; value = 1.05
Structure (SMILES) = COc1cc2c(Oc3ccc4[nH]c(C)cc4c3F)ccnc2cc1OCC1(N)CC1; test system = paediatric recurrent refractory sarcoma; setting = 10 mg; measurement = grade 1 or 2 Diarrhoea; value = 50%
Structure (SMILES) = CCC[C@@](N)(CO)CCc1ccc(OCCCCCC(C)C)cc1; test system = dog, male hounds, plasma; setting = oral capsule, 20 mg/kg, geometric mean; measurement = AUC(0-t); value = 20.9 µM·h
Structure (SMILES) = CCCCCCCCCCCCCCCC(=O)N[C@@H](CCC(=O)NCCCC[C@H](NC(=O)[C@H](CC(=O)O)NC(=O)[C@H](CO)NC(=O)[C@@H](NC(=O)[C@H](Cc1ccccc1)NC(=O)[C@@H](NC(=O)CNC(=O)[C@H](CCC(N)=O)NC(=O)[C@H](CO)NC(=O)[C@@H](N)Cc1c[nH]cn1)[C@@H](C)O)[C@@H](C)O)C(=O)N[C@@H](CO)C(=O)N[C@@H](CCC(=O)O)C(=O)N[C@@H](Cc1ccc(O)cc1)C(=O)N[C@@H](CC(C)C)C(=O)N[C@@H](CC(=O)O)C(=O)N[C@@H](CO)C(=O)N[C@@H](CCC(=O)O)C(=O)N[C@@H](CCCNC(=N)N)C(=O)N[C@@H](C)C(=O)N[C@@H](CCCNC(=N)N)C(=O)N[C@@H](CC(=O)O)C(=O)N[C@@H](Cc1ccccc1)C(=O)N[C@H](C(=O)N[C@@H](C)C(=O)N[C@@H](Cc1c[nH]c2ccccc12)C(=O)N[C@@H](CC(C)C)C(=O)N[C@@H](CCC(=O)O)C(=O)N[C@@H](C)C(=O)NCC(=O)NCC(=O)O)C(C)C)C(=O)O; test system = human, all renal groups; setting = sc, 100 µg single dose; measurement = treatment-related adverse events; value = 54.1%
Structure (SMILES) = N=C(N)NCCC[C@H](NC(=O)[C@H](Cc1ccccc1)NC(=O)[C@H](CCC(N)=O)NC(=O)OCc1ccccc1)C(=O)c1nccs1; test system = C57BL/6J mice female, plasma; setting = intravenous, 5 mg/kg; measurement = Vss; value = 3.41 L/kg

A few entries again:
Structure (SMILES) = N[C@@H]1c2ccccc2OC12CCN(c1cnc3c(N4CCCc5ncccc54)n[nH]c3n1)CC2; test system = advanced metastatic solid tumour patients; setting = oral, 150 mg once daily; measurement = TEAE leading to interruption; value = 100%
Structure (SMILES) = O=C(Nc1ccccc1)C1CCN(C(=O)Oc2cccnc2)CC1; assay = refers to: reproductive and breast disorders; test system = healthy women; setting = oral, 20 mg, 7 days; measurement = subjects with adverse event; value = 14.3%
